# Assay results pooled from the literature.
# Compare with care: the assays were run in different laboratories. “And” joins repeats or separate records; there may be more than shown.
# Sequence of UniProt P18825 (whole entry, looked up): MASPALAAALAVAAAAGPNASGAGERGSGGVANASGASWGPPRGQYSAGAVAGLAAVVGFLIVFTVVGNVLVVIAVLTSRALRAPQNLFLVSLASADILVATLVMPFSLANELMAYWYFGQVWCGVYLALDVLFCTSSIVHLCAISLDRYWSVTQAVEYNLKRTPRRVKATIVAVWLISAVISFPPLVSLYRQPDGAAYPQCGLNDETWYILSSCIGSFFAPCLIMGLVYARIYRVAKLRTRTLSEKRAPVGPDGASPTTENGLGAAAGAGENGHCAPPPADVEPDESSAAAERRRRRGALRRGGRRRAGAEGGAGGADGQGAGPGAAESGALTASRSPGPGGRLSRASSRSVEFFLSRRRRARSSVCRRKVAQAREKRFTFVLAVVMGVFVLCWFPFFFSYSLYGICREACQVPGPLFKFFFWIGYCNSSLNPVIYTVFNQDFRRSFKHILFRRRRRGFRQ
# Sequence of UniProt Q96SW2 (whole entry, looked up): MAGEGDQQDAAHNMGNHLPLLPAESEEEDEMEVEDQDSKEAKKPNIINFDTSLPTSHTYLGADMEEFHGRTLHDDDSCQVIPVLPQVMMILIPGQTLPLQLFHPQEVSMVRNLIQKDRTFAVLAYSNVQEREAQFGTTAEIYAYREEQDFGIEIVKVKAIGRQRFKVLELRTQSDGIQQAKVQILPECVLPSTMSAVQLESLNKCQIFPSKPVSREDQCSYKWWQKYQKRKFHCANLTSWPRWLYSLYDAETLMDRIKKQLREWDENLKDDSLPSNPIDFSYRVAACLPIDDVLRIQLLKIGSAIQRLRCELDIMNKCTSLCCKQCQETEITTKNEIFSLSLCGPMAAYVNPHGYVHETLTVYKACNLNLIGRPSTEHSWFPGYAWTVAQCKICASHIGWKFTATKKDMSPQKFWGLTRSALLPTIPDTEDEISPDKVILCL
# Sequence of UniProt Q9UKS7 (whole entry, looked up): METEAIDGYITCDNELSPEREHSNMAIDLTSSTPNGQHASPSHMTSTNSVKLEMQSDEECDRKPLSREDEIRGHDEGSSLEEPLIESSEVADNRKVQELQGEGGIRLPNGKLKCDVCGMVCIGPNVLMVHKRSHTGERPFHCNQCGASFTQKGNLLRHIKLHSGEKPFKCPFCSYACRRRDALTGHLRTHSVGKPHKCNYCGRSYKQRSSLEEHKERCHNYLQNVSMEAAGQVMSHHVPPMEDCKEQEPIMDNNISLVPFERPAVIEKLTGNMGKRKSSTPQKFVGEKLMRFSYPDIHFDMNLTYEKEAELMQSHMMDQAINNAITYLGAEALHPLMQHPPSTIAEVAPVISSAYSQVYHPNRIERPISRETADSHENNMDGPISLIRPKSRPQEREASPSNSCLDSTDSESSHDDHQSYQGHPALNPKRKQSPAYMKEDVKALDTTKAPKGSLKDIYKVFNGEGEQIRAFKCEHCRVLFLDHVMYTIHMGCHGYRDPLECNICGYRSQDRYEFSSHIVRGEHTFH
SMILES,tested on,test,test system,setting,scale,measurement,value
CCOc1ccc(Nc2c3c(nc4ccccc24)CCC3)cc1,Leishmania donovani,parasite growth,,"4 µM, intracellular, amastigote",,inhibition,42%
Cc1ccnc2c1NC(=O)c1cccnc1N2C1CC1,HEK-293T/ACE2,"pseudovirus infection, counter-screen",VSV pseudotyped with VSV-G,"10 µM, 16 h",relative to: vehicle-treated,GFP-positive cells,93%
COc1ccc(-c2c(Nc3ccccn3)[nH]c3c(C4=CCCCC4)c(-c4ccccc4)nn3c2=O)cc1,,,patients with advanced malignancies,"oral, dose not given, treatment-emergent adverse events",,grade 3 hyperbilirubinaemia incidence,7.5%
CNC(=C[N+](=O)[O-])NCCSCc1csc(CN(C)C)n1,HEK-293T/ACE2,"pseudovirus infection, counter-screen",VSV pseudotyped with VSV-G,"10 µM, 16 h",relative to: vehicle-treated,GFP-positive cells,109%
c1ccc(Oc2ccc(Nc3c4c(nc5ccccc35)CCC4)cc2)cc1,Leishmania donovani,parasite growth,"DD8 amphotericin B-resistant, promastigotes",6.66 µM,,inhibition,81% and 83% and 78% and 87% and 88%
Cc1c(N2CCNCC2)nc2ccc(Br)cc2c1C(=O)NC[C@H](CCC(=O)O)c1ccccc1Cl,"Alpha-2C adrenergic receptor (ADRA2C, Homo sapiens, UniProt P18825)",ligand displacement,,10 µM,,inhibition,5.7%
O=C1CCC(N2Cc3c(ccc4c3OCC43CCN(Cc4ccccn4)CC3)C2=O)C(=O)N1 (centres unmarked),"CRBN/Zinc finger protein Helios (Homo sapiens, UniProt Q96SW2+Q9UKS7)","degrader, HiBiT",HEK293,0.1694 nM,,protein remaining,112%
CCCCCCCCCCCCCCCCOP(=O)([O-])OCC[N+](C)(C)C,Leishmania donovani,,"THP-1 intracellular amastigotes, DD8 resistant line","10 µM, resistance confirmation",,inhibition,41% and 43%

# Some of these lines once more:
SMILES,tested on,test,test system,setting,scale,measurement,value
c1ccc(Oc2ccc(Nc3c4c(nc5ccccc35)CCC4)cc2)cc1,Leishmania donovani,parasite growth,"DD8 amphotericin B-resistant, promastigotes",6.66 µM,,inhibition,81% and 83% and 78% and 87% and 88%
